# Measurements of several laboratories.
# Each line is one published result; not all experiments were run side by side. Numbers after ± are the reported error.
# CYP2C9: Cytochrome P450 2C9 (CYP2C9, Homo sapiens, UniProt P11712)
# Sequence of UniProt P11712 (whole entry, looked up): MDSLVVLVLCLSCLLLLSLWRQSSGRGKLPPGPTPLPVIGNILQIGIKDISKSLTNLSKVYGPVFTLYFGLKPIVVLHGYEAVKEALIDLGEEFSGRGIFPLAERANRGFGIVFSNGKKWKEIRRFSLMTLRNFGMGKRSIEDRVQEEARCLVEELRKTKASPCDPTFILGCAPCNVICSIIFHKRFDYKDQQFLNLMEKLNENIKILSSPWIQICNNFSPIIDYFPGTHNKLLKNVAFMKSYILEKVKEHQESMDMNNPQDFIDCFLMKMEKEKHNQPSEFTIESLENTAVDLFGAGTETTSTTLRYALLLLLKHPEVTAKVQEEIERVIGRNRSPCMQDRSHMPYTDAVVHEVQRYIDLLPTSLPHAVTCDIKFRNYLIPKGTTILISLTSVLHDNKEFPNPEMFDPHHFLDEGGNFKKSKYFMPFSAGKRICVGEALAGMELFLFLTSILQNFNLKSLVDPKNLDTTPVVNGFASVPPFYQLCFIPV
# NR1I2: Nuclear receptor subfamily 1 group I member 2 (NR1I2, Homo sapiens, UniProt O75469)
# Sequence of UniProt O75469 (whole entry, looked up): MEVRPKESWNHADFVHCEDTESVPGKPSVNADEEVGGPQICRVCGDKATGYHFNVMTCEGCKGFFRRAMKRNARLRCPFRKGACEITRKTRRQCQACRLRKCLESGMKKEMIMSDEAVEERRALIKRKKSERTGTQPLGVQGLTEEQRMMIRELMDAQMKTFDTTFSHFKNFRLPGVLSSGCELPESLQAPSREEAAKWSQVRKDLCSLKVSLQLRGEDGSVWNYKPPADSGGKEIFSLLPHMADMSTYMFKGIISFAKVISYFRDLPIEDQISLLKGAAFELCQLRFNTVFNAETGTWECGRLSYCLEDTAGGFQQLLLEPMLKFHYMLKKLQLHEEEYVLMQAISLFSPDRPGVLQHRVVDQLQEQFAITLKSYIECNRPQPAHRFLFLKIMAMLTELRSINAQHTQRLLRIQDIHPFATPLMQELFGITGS
# Sequence of UniProt P11509 (whole entry, looked up): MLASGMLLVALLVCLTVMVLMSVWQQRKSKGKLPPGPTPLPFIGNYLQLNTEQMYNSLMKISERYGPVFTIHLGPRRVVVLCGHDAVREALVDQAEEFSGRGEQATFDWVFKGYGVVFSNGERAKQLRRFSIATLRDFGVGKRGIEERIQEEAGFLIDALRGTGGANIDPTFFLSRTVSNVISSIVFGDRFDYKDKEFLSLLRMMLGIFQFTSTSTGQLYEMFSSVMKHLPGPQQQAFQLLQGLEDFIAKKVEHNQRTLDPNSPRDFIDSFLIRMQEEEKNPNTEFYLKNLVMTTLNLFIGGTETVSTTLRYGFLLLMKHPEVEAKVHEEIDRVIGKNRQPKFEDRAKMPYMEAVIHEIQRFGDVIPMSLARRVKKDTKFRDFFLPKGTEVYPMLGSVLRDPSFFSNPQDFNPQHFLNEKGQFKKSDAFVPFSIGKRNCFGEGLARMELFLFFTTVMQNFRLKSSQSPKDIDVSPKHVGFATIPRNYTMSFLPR
# Sequence of UniProt P08183 (whole entry, looked up): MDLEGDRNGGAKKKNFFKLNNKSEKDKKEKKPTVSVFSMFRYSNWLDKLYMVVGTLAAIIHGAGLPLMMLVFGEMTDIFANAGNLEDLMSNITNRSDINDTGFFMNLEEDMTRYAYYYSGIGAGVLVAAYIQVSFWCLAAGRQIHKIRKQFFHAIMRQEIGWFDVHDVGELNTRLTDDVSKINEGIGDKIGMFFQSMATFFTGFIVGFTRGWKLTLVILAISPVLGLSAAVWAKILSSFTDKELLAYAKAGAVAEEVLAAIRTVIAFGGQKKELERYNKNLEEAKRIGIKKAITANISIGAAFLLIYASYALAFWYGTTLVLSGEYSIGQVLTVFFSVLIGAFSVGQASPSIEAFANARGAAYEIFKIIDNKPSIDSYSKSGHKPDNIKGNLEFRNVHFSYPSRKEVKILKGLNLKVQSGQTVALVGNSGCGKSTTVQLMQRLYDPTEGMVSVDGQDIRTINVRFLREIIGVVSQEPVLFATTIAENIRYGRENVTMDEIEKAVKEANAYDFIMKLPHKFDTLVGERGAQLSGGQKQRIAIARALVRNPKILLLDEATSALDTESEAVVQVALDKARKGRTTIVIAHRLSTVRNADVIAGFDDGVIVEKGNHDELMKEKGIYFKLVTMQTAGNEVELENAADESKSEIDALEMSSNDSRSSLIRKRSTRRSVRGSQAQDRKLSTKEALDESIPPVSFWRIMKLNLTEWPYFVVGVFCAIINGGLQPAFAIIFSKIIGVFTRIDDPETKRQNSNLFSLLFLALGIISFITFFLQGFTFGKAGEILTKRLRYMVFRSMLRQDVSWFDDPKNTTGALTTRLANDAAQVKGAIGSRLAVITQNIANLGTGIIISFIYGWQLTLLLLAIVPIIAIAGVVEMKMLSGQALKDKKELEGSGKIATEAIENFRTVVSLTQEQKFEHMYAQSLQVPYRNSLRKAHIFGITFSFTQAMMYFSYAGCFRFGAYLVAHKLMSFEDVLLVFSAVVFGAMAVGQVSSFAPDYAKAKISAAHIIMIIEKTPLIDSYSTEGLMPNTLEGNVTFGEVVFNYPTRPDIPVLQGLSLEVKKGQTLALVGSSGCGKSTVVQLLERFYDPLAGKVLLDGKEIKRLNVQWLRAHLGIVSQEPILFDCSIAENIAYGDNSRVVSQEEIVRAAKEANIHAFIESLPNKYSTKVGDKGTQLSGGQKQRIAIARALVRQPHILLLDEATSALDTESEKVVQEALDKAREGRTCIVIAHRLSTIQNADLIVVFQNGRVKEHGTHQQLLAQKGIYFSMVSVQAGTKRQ
# Sequence of UniProt Q95LD9 (whole entry, looked up): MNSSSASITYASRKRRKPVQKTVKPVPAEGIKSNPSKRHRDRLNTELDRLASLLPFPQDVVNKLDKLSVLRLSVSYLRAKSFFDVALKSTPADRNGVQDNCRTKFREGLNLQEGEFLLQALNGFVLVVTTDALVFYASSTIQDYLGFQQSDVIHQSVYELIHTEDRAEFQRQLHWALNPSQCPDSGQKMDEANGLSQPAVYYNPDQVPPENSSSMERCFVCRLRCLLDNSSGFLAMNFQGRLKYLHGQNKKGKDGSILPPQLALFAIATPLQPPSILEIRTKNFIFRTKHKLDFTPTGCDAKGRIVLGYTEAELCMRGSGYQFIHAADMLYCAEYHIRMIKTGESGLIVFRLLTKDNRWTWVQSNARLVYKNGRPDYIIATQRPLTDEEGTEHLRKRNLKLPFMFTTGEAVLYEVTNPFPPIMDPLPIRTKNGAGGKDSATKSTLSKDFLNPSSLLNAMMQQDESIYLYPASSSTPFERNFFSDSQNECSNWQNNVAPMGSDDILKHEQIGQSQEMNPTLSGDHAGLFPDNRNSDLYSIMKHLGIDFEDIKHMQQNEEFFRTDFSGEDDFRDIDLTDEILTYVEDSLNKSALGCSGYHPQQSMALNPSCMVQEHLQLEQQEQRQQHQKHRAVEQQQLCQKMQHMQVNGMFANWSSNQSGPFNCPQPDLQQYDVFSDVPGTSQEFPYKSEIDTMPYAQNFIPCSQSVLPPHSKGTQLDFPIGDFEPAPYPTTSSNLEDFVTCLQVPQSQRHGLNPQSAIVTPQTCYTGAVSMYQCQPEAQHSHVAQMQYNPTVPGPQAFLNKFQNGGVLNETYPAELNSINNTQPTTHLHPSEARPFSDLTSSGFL
# Sequence of UniProt Q16696 (whole entry, looked up): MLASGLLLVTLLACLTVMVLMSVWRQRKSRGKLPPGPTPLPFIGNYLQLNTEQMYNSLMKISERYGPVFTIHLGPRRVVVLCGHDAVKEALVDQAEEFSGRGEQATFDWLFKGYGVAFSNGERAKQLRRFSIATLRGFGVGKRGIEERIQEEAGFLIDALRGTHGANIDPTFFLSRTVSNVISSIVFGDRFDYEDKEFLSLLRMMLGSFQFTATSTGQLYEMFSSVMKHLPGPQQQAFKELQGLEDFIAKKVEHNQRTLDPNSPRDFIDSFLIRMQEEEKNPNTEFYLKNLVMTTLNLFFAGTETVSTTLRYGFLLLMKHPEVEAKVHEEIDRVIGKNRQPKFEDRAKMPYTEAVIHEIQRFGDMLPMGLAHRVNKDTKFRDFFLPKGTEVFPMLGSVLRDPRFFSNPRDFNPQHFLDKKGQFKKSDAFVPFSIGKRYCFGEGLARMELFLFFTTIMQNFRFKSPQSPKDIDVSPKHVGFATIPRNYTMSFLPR
Structure (SMILES),target,assay,system,setting,scale,quantity,result
CC(=O)CC(c1ccccc1)c1c(O)c2cc(O)ccc2oc1=O (stereo not shown),CYP2C9,"enzyme activity, inhibitor",,pH 7.4,,Ki,> 170000 nM
Clc1ccc(-c2cc(Cl)c(Cl)c(Cl)c2Cl)c(Cl)c1Cl,NR1I2,"reporter gene, agonist, luciferase",COS-7,24 h,relative to: DMSO,fold induction,2.3 ± 0.3 fold
C=C1CC[C@@H]2[C@](C)(CO)[C@H](O)CC[C@@]2(C)[C@@H]1C/C=C1/C(=O)OC[C@H]1O,"Albumin (ALB, Homo sapiens, UniProt P02768)",HPLC-based,human plasma,,,fraction unbound,0.12
CC(C)[C@@H]1NC(=O)c2csc(n2)[C@H](C(C)C)NC(=O)c2csc(n2)[C@H](C(C)C)NC(=O)c2csc(n2)[C@H](C(C)C)NC(=O)c2csc1n2,"ABCB1 (Homo sapiens, UniProt P08183)","efflux transport, inhibitor, flow cytometry","HeLa, transduced with BacMam P-gp","10 µM, 10 min, added: calcein-AM 0.5 µM",relative to: tariquidar 1 µM,inhibition,62%
CN(C)C(=O)C(CCN1CCC(O)(c2ccc(Cl)cc2)CC1)(c1ccccc1)c1ccccc1,"P-glycoprotein (Canis lupus familiaris, UniProt C0KKU9)","rhodamine efflux, inhibitor",MDCK-MDR1 cells,"1 µM, added: rhodamine 123 1 µM",relative to: rhodamine alone,rhodamine fluorescence ratio,10.3
C#CCOCc1cccc2ccccc12,"Cytochrome P450 2A13 (Homo sapiens, UniProt Q16696)","binding, absorbance",,pH 7.4,,Kd,13300 nM
CC[C@H](C)[C@@H]1NC(=O)[C@H](CCC(=O)O)NC(=O)[C@@H](NC(=O)[C@@H](NC(=O)CNC(=O)[C@H](CO)NC(=O)[C@H](CC(C)C)NC(=O)[C@H](CO)NC(=O)[C@H](CCC(=O)O)NC(=O)[C@H](CCCNC(=N)N)NC(=O)[C@@H](NC(=O)[C@H](C)NC(=O)[C@@H]2CSSC[C@H](NC(=O)[C@H](Cc3ccc(O)cc3)NC(=O)[C@H](CO)NC(=O)[C@@H](NC(=O)[C@H](C)N)[C@@H](C)O)C(=O)N[C@@H](CCCNC(=N)N)C(=O)N[C@@H]([C@@H](C)O)C(=O)NCC(=O)N[C@@H](CCCNC(=N)N)C(=O)N2)[C@@H](C)O)C(C)C)CSSC[C@@H](C(=O)N[C@@H](CO)C(=O)N[C@@H](CCCNC(=N)N)C(=O)O)NC(=O)[C@H](CC(C)C)NC(=O)[C@H](CCCNC(=N)N)NC(=O)[C@H](Cc2ccc(O)cc2)NC(=O)[C@H](CC(C)C)NC(=O)[C@H](CCCNC(=N)N)NC(=O)CNC(=O)[C@H](CO)NC1=O,trypsin,"proteolytic degradation, substrate",,"80 µM, pH 8.2, room temperature",,time to full digestion,≤ 2 min
Clc1ccc(-c2cc(Cl)c(Cl)c(Cl)c2Cl)cc1Cl,"Aryl hydrocarbon receptor (AHR, Delphinapterus leucas, UniProt Q95LD9)","binding, competitor",,"in vitro expressed receptor, added: [3H]TCDD",,Ki,309 nM
"CCC1(c2ccccc2)NC(=O)N(Cc2ccccc2)C1=O (single isomer, unassigned; (+))",CYP (human),"THC M2 formation, inhibitor",human liver microsomes,"5 µM, added: THC 2 µM",,inhibition,no inhibition
C#CCOc1ccc(-c2ccccc2)cc1,"Cytochrome P450 2A6 (CYP2A6, Homo sapiens, UniProt P11509)","binding, absorbance",,pH 7.4,,Kd,750 nM
Clc1ccc(Cl)c(-c2cc(Cl)c(Cl)cc2Cl)c1,NR1I2,"reporter gene, agonist, luciferase",COS-7,24 h,relative to: DMSO,fold induction,3.3 ± 5 fold
CCC[S+]([O-])c1ccc2[nH]c(NC(=O)OC)nc2c1 (stereo not shown),CYP2C9,inhibitor,human liver microsomes,"2 µM, pH 7.4, added: diclofenac",,inhibition,6.08%
Clc1cc(Cl)c(-c2cc(Cl)c(Cl)cc2Cl)cc1Cl,NR1I2,"reporter gene, agonist, luciferase",COS-7,24 h,relative to: DMSO,fold induction,3.2 ± 0.3 fold
C1CO1,"glutathione S-transferase, mouse",substrate,"B6C3F1 mice, lung cytosol",,,Km,≥ 9000 µM
Brc1c(Br)c(Br)c(Oc2c(Br)c(Br)c(Br)c(Br)c2Br)c(Br)c1Br,PXR (polar bear),"reporter gene, agonist, luciferase",COS-7,24 h,relative to: DMSO,fold induction,1.9 ± 0.3 fold
Oc1cc(O)cc(/C=C/c2ccc(O)c(O)c2)c1,UGT1A10 human recombinant,"substrate, refers to: 3-glucuronide",,pH 7.4,,Km,44.5 ± 10.9 µM

# For quick reference, copied from above:
Structure (SMILES),target,assay,system,setting,scale,quantity,result
"CCC1(c2ccccc2)NC(=O)N(Cc2ccccc2)C1=O (single isomer, unassigned; (+))",CYP (human),"THC M2 formation, inhibitor",human liver microsomes,"5 µM, added: THC 2 µM",,inhibition,no inhibition
C#CCOc1ccc(-c2ccccc2)cc1,"Cytochrome P450 2A6 (CYP2A6, Homo sapiens, UniProt P11509)","binding, absorbance",,pH 7.4,,Kd,750 nM
